Measurements gathered from unrelated publications.
Parts stem from different laboratories: compare values within a part only. Positions count from the first letter of the parent shown.

Sample 1
Target: JDP2, bZIP domain (human)
Technique: DHFR protein complementation
Medium: yeast
Notes: single substitutions, most at no-binding floor
Baseline: wild-type JUN-FOS pair
Reading: higher = stronger binding
Parent: JUN, bZIP domain (human); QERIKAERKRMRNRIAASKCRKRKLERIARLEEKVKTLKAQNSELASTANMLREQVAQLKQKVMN; partner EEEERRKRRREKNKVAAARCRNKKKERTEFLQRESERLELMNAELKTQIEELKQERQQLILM
| Substitution | binding fitness [natural log] |
| --- | --- |
| Q41N | 0.185 |
| A49N | 0.0266 |
| E32C | 0.15 |
| E33V | 0.221 |
| A57L | 0.194 |
| L52G | -0.906 |
| L45C | 0.0148 |
| S47I | 0.255 |
| T37P | -0.513 |
| L52A | -0.108 |
| L52K | -0.588 |
| V35E | -0.0337 |
| A40R | 0.247 |
| S47H | 0.224 |
| L59H | 0.0303 |
| L45E | -0.296 |
| A57E | 0.287 |
| E44I | 0.148 |
| L45S | -0.126 |
| R30F | 0.25 |
| R30K | 0.181 |

Sample 2
Target: CCNA1, cyclin fold, Cln2 fusion (human)
Technique: yeast growth competition, sequencing
Medium: yeast
Notes: weak parent motif
Baseline: not given
Reading: higher = stronger binding
Parent: CDKN1B docking peptide (human); PSACRNLFGPVDH; partner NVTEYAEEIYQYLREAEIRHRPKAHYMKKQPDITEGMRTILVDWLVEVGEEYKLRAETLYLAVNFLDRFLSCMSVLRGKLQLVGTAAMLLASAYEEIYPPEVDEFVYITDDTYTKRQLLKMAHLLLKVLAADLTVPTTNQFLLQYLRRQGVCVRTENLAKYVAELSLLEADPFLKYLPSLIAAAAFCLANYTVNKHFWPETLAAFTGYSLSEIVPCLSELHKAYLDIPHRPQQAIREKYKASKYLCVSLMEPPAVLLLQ
| Substitution | normalised enrichment score |
| --- | --- |
| V11A | 0.22 |
| H13L | 0.348 |
| G9N | 0.255 |
| R5A | -0.0093 |
| F8E | 0.0804 |
| G9E | 0.34 |
| D12E | 0.352 |
| L7M | 0.38 |
| L7K | 0.319 |
| R5A L7A | -0.0838 |
| S2V | 0.318 |
| P10V | 0.199 |
| R5V | 0.137 |
| P1N | 0.387 |
| N6T | 0.133 |
| P1W | 0.307 |
| D12R | 0.366 |
| V11N | 0.384 |
| R5P | -0.0535 |
| D12T | 0.415 |
| N6S | 0.381 |
| P10S | 0.425 |
| V11T | 0.269 |

Sample 3
Target: Histone acetyltransferase KAT6A, winged helix 1, GST fusion (KAT6A, Homo sapiens, UniProt Q92794, residues 1-85)
Technique: protein binding microarray
Molecule type: double-stranded DNA, one strand shown
Medium: in vitro
Concentration: not given
Notes: 8-mer, flanks averaged, mean of 2 arrays, mostly near background
Baseline: not given
Reading: higher = stronger binding
Construct (chain): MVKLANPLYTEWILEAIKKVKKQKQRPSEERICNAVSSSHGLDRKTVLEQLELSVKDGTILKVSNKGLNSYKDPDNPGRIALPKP
| Strand | E-score |
| --- | --- |
| CGTACTCC | 0.118 |
| TATGGTAA | -0.0344 |
| ACCGGGCG | 0.313 |
| TGTAAGAA | -0.0591 |
| ATTAAACG | -0.0841 |
| CAACACCA | -0.214 |
| CCAAGTAC | 0.0868 |
| GCATCAGC | 0.144 |
| ATCAATTC | -0.0997 |
| ACGAGTGA | -0.125 |
| AACATTTA | 0.0337 |
| CCAAATAA | -0.191 |
| AATTATAT | -0.0321 |
| TGGAAACA | -0.224 |
| ACTGTTTC | 0.105 |
| GCACGCAC | 0.194 |

Sample 4
Target: Ras GTPase-activating protein-binding protein 1, full length (G3BP1, Homo sapiens, UniProt Q13283)
UniProt Q13283, sequence (whole entry, looked up): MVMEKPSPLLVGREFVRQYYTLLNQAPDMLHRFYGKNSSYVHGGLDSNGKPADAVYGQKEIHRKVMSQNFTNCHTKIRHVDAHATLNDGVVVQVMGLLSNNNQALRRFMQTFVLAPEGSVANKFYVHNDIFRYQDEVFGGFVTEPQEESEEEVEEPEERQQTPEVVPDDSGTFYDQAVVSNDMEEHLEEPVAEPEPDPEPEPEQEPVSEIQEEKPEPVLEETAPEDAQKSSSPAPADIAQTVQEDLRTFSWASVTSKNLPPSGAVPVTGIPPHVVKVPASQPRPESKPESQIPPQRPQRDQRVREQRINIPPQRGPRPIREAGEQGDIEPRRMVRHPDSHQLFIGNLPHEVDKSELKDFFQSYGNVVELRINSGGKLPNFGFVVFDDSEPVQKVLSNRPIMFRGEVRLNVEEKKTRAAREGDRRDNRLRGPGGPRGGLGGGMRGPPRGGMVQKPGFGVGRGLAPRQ
Technique: RNA Bind-n-Seq
Molecule type: RNA
Medium: in vitro
Concentration: 200 nM
Notes: whole 134-nt RNA, ends assumed
Added: 150 mM LiCl
Baseline: input library
Reading: higher = stronger binding
All molecules: 7-deaza-guanosine replaces G
Shared flanks, not repeated: GGGAGUUCUACAGUCCGACGAUC … UGGAAUUCUCGGGUGUCAAGG
| Strand | log2 enrichment |
| --- | --- |
| CAAGUCCUGUGCUACACAUCGUAUGUACCGAAUCGGUUUUUGGUUUGGUUUUUGGAAAGUAUUAUGUUACGCCGUUCGGAUCUGCACUUC | -1.26 |
| AGUCCUGUGCUACACAUCGUAUGUACCGAAUCAAACCCCCCCAAAUUUAAAUUUAAAAAAGUAUUAUGUUACGCCGUUCGGAUCUGCACU | 1.19 |
| CUCAAGUCCUGUGCUACACAUCGUAUGUACCGAAUCGGAGGUGGAAAAAAAGGAAAGUAUUAUGUUACGCCGUUCGGAUCUGCACUUCCA | -0.747 |
| UGGGAUGUGGAUUUUGUUUAUUUUUUUAGCUCAUUUCCAGGGGUGGGAAUUUUUUUUUAAUAUGUGUCAUGAAUAAAGUUGUUUUUGAAA | 0.492 |
| CUCAAGUCCUGUGCUACACAUCGUAUGUACCGAAUCGGAGGUUUGGAAAAAGGAAAGUAUUAUGUUACGCCGUUCGGAUCUGCACUUCCA | -0.655 |
| CUGUGCUACACAUCGUAUGUACCGAAUCGGGGUUUGGGGUUUUUUUGGGGUUUUUUUGGGGAAAGUAUUAUGUUACGCCGUUCGGAUCUG | 1.45 |
| UCAAGUCCUGUGCUACACAUCGUAUGUACCGAAUCGGGAAGGGGAAGGGGAAGGAAAGUAUUAUGUUACGCCGUUCGGAUCUGCACUUCC | -0.739 |
| AUUAUAGACUUGAUCAAAACACAGGAAAAGGCAACUCCCAGGAACUUUCCGCCACGAUUCCAGGAUGGAUAUUACAGCUGACAGCUUUUC | -1.14 |
| UCCUGUGCUACACAUCGUAUGUACCGAAUCGGGCCCCCCGGGCCCCCCGGGCCCCCCGGGAAAGUAUUAUGUUACGCCGUUCGGAUCUGC | -0.778 |
| GCAGGAAGUAAAAACAAAUGGACAUGCUUCGGAUAGUGGCAGGGGUGGGGGUUGCUAAGGAAAGGGUGGGAUGGGAGUGGGUAAAGAGUU | 0.265 |
| UGGGAGGUGGAUUUUGUUUAUUUUUUUAGCUCAUUUCCAGGGGUGGGAAUUUUUUUUUAAUAUGUGUCAUGAUUAAAGUUGUUUUUGAAA | -0.169 |

Sample 5
Target: UBE2R2 UBC core domain (UniProt Q712K3)
Technique: yeast two-hybrid
Medium: yeast
Notes: mostly zero background
Baseline: not given
Reading: higher = stronger interaction
B1: VPS41 RING domain (UniProt P49754); chain KGVLVDEENICESCLSPILPSDAAKPFSVVVFHCRHMFHKECLPMPSMNSAAQFCNICSAKNRGPGSAI
B2: NEURL1 RING domain (UniProt O76050); chain VTPGLGQWSDECTICYEHAVDTVIYTCGHMCLCYACGLRLKKALHACCPICRRPIKDIIKT
B3: TRIML1 RING domain (UniProt Q8N9V2); chain LMENLREELTCFICLDYFSSPVTTECGHSFCLVCLLRSWEEHNTPLSCPECWRTLEGPHFQS
B4: MKRN1 RING domain (UniProt Q9UHC7); chain FAVQRSKDMVCGICMEVVYEKANPSERRFGILSNCNHTYCLKCIRKWRSAKQFESKIIKSCPECRITSNFVIPSE
B5: RNF208 RING domain (UniProt Q9H0X6); chain SSAAAGEPLECPTCGHSYNVTQRRPRVLSCLHSVCEQCLQILYESCPKYKFISCPTCRRETVLFTDYG
B6: RNF111 RING domain (UniProt Q6ZNA4); chain EGTEEDTEEKCTICLSILEEGEDVRRLPCMHLFHQVCVDQWLITNKKCPICRVDIEAQLPSE
B7: TRIM5 RING domain (UniProt Q9C035); chain ILVNVKEEVTCPICLELLTQPLSLDCGHSFCQACLTANHKKSMLDKGESSCPVCRISYQPENIRP
B8: TRIM24 RING domain (UniProt O15164); chain EAARLNLLDTCAVCHQNIQSRAPKLLPCLHSFCQRCLPAPQRYLMLPAPMLGSAETPPPVPAPGSPVSGSSPFATQVGVIRCPVCSQECAERHII
B9: DTX4 RING domain (UniProt Q9Y2E6); chain QKVRHPPDEDCTICMERLTAPSGYKGPQPTVKPDLVGKLSRCGHVYHIYCLVAMYNNGNKDGSLQCPTCKTIYGVKTGTQ
B10: RC3H1 RING domain (UniProt Q5TC82); chain QAPQWTDFLSCPICTQTFDETIRKPISLGCGHTVCKMCLNKLHRKACPFDQTTINTDIELL
B11: TRIM40 RING domain (UniProt Q6P9F5); chain LQKDNQEEGVCPICQESLKEAVSTNCGHLFCRVCLTQHVEKASASGVFCCPLCRKPCSEEVLG
Target sequence (chain): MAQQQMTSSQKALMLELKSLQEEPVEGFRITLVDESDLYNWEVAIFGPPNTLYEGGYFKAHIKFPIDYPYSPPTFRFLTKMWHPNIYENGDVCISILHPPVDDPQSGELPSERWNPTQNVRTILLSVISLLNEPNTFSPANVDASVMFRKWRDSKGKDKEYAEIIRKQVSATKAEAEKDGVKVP
| Sequence | lacZ reporter activity |
| --- | --- |
| ASLPTSEEDLCPICYAHPISAVFQPCGHKSCKACINQHLMNNKDCFFCKTTIVSVEDWE (RNF123 RING domain (UniProt Q5XPI4)) | 0 |
| B1 (VPS41 RING domain) | 0 |
| GAAPGPEAAECLVCSELALLVLFSPCQHRTVCEECARRMKKCIRCQVVVSKKLRPD (MIB2 RING domain (UniProt Q96AX9)) | 0 |
| B2 (NEURL1 RING domain) | 0 |
| B3 (TRIML1 RING domain) | 0 |
| B4 (MKRN1 RING domain) | 0 |
| B5 (RNF208 RING domain) | 0 |
| B6 (RNF111 RING domain) | 0 |
| B7 (TRIM5 RING domain) | 0 |
| B8 (TRIM24 RING domain) | 0 |
| QVDKAVFHMQSVKCLKCQEQKRAVLPCQHAALCELCAEGSECPICQPGRAHTLQS (UNK RING domain (UniProt Q9C0B0)) | 0 |
| MPIRALCTICSDFFDHSRDVAAIHCGHTFHLQCLIQWFETAPSRTCPQCRIQVGKRTIIN (TRAIP RING domain (UniProt Q9BWF2)) | 0 |
| B9 (DTX4 RING domain) | 0 |
| B10 (RC3H1 RING domain) | 0 |
| B11 (TRIM40 RING domain) | 0 |
